Measurements pooled from the literature.
Compare with care: the assays were run in different laboratories. “And” joins repeats or separate records; there may be more than shown. ± marks the error that the study gave.
APP: Amyloid-beta precursor protein (APP, Homo sapiens, UniProt P05067)
AR: Androgen receptor (AR, Homo sapiens, UniProt P10275)
CASP4: Caspase-4 (CASP4, Homo sapiens, UniProt P49662)
T1: FMN riboswitch G8A/G9A/G74A/G96A (Lactobacillus plantarum); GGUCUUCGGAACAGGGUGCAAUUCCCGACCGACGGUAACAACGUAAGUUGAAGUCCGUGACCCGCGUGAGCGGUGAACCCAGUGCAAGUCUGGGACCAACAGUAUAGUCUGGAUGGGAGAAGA

Substance | target | assay | system | setting | how to read | measurement | result
O=Cc1ccc(O)cc1 | Enoyl-ACP reductase (Thermus thermophilus, UniProt P83818) | enzyme activity, substrate, steady-state turnover | – | – | – | NAD(P)H oxidation rate | no effect
CC(=O)N[C@H]1[C@H](Oc2ccc3c(C)cc(=O)oc3c2)O[C@H](CO)[C@@H](O)[C@@H]1O | O-GlcNAcase (human, wild type) | substrate | – | up to 2 mM, 1% DMSO | – | kcat/Km | 7000 M⁻¹ s⁻¹
Cc1cnc(-c2ccnc(C(C)(C)O)n2)cc1-n1c(C)cc(OCc2ncc(F)cc2F)c(Cl)c1=O | p38α–MK2 complex | binding, surface plasmon resonance | – | with: 10 nM p38α | reference: CDD-110 | complex half-life increase | 4 fold
Cc1ccccc1-c1ccc(C(=O)N2CC3(C)CC2CC(C)(C)C3)cc1 (stereo not drawn) | Vasopressin V1a receptor (Mus musculus, UniProt Q62463) | blocker | CD-1 mouse, cortex | subcutaneous, 3 mg/kg, 60 min | – | radiotracer uptake reduction | 26%
WLRRYLENGK | Endoplasmic reticulum aminopeptidase 2 (ERAP2, Homo sapiens, UniProt Q6P179) | substrate, RP-HPLC | peptide | pH 7.0, 37 °C, with: 20 µM precursor | – | trimming rate | 2 ± 0.04 pmol/nmol/s
COC(=O)CCC(C(=O)C=Cc1ccc(O)c(OC)c1)C(=O)C=Cc1ccc(O)c(OC)c1 (stereo not drawn) | APP | Aβ aggregation, SDS-PAGE western blot, refers to: Aβ1-42 75-200 kDa band | – | 30 µM, 24 h, 37 °C, with: Aβ1-42 10 µM | reference: DMSO | band density | 501 ± 204%
CC[C@H](C)[C@H](NC(=O)[C@H](CC(C)C)NC(=O)[C@H](CC(C)C)NC(=O)CNC(=O)[C@H](Cc1ccc(O)cc1)NC(=O)[C@H](CCCNC(=N)N)NC(=O)[C@H](CO)NC(C)=O)C(=O)N[C@@H](CCCCN)C(=O)N[C@@H](C)C(=O)N[C@@H](Cc1ccccc1)C(=O)N[C@@H](CO)C(=O)N[C@@H](CCSC)C(=O)N[C@H](C(=O)N[C@@H](C)C(=O)N[C@@H](C)C(=O)N[C@@H](CCC(=O)O)C(=O)N[C@H](C(=O)N[C@@H](C)C(=O)N[C@@H](CCCNC(=N)N)C(=O)N[C@@H](CCCNC(=N)N)C(=O)N[C@H](C(=O)N[C@@H](CCCNC(=N)N)C(=O)N[C@@H](CCC(=O)O)C(=O)N[C@@H](Cc1ccccc1)C(=O)N[C@@H](CCCNC(=N)N)C(N)=O)[C@@H](C)O)[C@@H](C)O)[C@@H](C)O | calmodulin 1-80 sites I and II | calcium binding, Phe fluorescence titration | – | 12 µM, pH 7.4, 22 °C, with: 6 µM calmodulin | – | apparent ΔG1 | -6.25 ± 0.33 kcal/mol
Ac-GRPCA-NH2 (N-acetyl, C-amide) | Fibroblast growth factor 2, with pentraxin 3 (Homo sapiens, UniProt P09038) | binding to PTX3, competitor, surface plasmon resonance | peptide | with: 150 nM free FGF2 | – | ID50 | 80000 nM
Nc1ncnc2c1ncn2[C@H]1C[C@H](O)[C@@H](COP(=O)(O)O)O1 | Adenylate kinase isoenzyme 1 (AK1, Homo sapiens, UniProt P00568) | substrate | – | – | reference: kcat of D-AMP with human AK1 | relative Vmax | 48 ± 4%
Ac-YESTNPFTAK-NH2 (N-acetyl, C-amide) | EHD1 EH domain, mouse | ITC | peptide | pH 7.0, 20 °C, 0 mM KCl, first titration | – | ΔS | -22.7 cal/mol/K
O=S(=O)(Nc1ccccc1)C1CC2OC1C(c1ccc(O)cc1)=C2c1ccc(O)cc1 (stereo not drawn) | Estrogen receptor (ESR1, Homo sapiens, UniProt P03372) | reporter gene, antagonist | HepG2 | with: estradiol 10 nM | reference: E2 response, negative is inverse agonism | efficacy | 83 ± 5%
FC(F)OC(Cl)C(F)(F)F (stereo not drawn) | Gabrg2/GABRB2/Gabra1 (Rattus norvegicus, UniProt P18508+P47870+P62813, C260A/C282A/C312A/C319A/C341A/N289C/Q255C) | two-electrode voltage clamp | Xenopus oocytes | 0.3 and 0.9 mM, after Cu-phenanthroline oxidation, with: GABA EC10 | reference: after DTT | GABA current modulation | increased
Cn1c(=O)c2[nH]c(SCc3ccccc3)nc2n(C)c1=O | AR | reporter gene, antagonist, PSA-luciferase | HeLa-A6 | 10 µM, 24 h, with: 5 nM dihydrotestosterone | reference: maximal activity | remaining activity | 121%
Cc1cc2nc3c(=O)[nH]c(=O)nc-3n(CC=O)c2cc1C | T1, FMN riboswitch G8A/G9A/G74A/G96A (Lactobacillus plantarum) | ITC | – | pH 7.5, 25 °C, NaCl 100 mM | – | Kd | 68 nM
CC(C)[C@H](NC(=O)[C@H](CCCNC(=N)N)NC(=O)[C@@H](NC(=O)[C@H](CCC(N)=O)NC(=O)[C@H](CCC(N)=O)NC(=O)[C@@H](NC(=O)[C@H](Cc1c[nH]c2ccccc12)NC(=O)[C@@H]1CCCN1C(=O)[C@@H]1CCCN1C(=O)[C@H](Cc1ccccc1)NC(=O)[C@@H](CO)NC(=O)CNC(=O)[C@H](CCCNC(=N)N)NC(=O)[C@H](CCCNC(=N)N)NC(=O)[C@H](CCCNC(=N)N)NC(=O)[C@H](CCCNC(=N)N)NC(=O)[C@H](CCCNC(=N)N)NC(=O)[C@@H](N)CCCNC(=N)N)C(C)C)[C@@H](C)O)C(=O)O | Disks large homolog 4, PDZ3 domain (Homo sapiens, UniProt P78352) | binding, surface plasmon resonance | – | pH 7.5, 25 °C | – | kon | 633000 M⁻¹ s⁻¹
COc1cc2c(Nc3ccc(Br)cc3F)ncnc2cc1OCC1CCN(C)CC1 | Broad substrate specificity ATP-binding cassette transporter ABCG2 (Mus musculus, UniProt Q7TMS5) | – | MDCKII | 100 nM, 60 min | reference: parental cells | accumulation reduction | ~50%
CC1(C)[C@@H](OC(=O)CCC(=O)O)CC[C@]2(C)[C@H]3C(=O)C=C4[C@@H]5C[C@@](C)(C(=O)O)CC[C@]5(C)CC[C@@]4(C)[C@]3(C)CC[C@@H]12 | Gap junction alpha-1 protein (GJA1, Homo sapiens, UniProt P17302) | hemichannel ATP release | ARPE-19 | 100 µM, with: low calcium 35 min | reference: untreated | ATP release | decreased
Nc1nc2c(ncn2[C@@H]2O[C@@H]3COP(=O)(O)O[C@H]3[C@H]2O)c(=O)[nH]1 | CNGA3 (Homo sapiens, UniProt Q16281) | ion current, agonist, inside-out patch clamp | Xenopus oocytes | homomeric channel | reference: maximum cGMP current at start | Imax relative to cGMP | 1
FEDSIYADIFIEE | Tyrosine-protein kinase CSK (CSK, Homo sapiens, UniProt P41240) | substrate | peptide | concentration not given | reference: Glu or Asp Y-1 parent peptide | kcat/Km fold change | 1.1 fold
CSc1nc2c([nH]1)c(=O)n(C)c(=O)n2C | AR | reporter gene, antagonist, PSA-luciferase | HeLa-A6 | 10 µM, 24 h, with: 5 nM dihydrotestosterone | reference: maximal activity | remaining activity | 119%
O=S(=O)(O)c1cc(N=C=S)ccc1CCc1ccc(N=C=S)cc1S(=O)(=O)O | SLC4A1 (Homo sapiens, UniProt P02730) | chloride exchange | human red blood cells | pH 9.0, 0 °C, pH-induced inward chloride gradient, with: external chloride 60 mM | – | ID50 | 550 nM and 340 nM and 320 nM and 400 nM and 830 nM
O=C(O)CCC(=O)c1ccc(-c2ccccc2)cc1 | CASP4 | – | – | 33 µM, with: LEHD substrate | reference: solvent control | remaining activity | 3.71%
Ac-GPSLNPFDEED-NH2 (N-acetyl, C-amide) | EHD1 EH domain, mouse | ITC | peptide | pH 7.0, 20 °C, 0 mM KCl, second titration | – | TΔS | -3.4 kcal/mol
CC(=O)N[C@H]1[C@@H](O[C@H](C)[C@H](NC(=O)CNC(=O)[C@H](C)NC(=O)CNC(=O)[C@H](C)NC(=O)CNC(=O)[C@H](C)NC(=O)CNC(=O)[C@@H](NC(=O)[C@H](C)NC(=O)CN)[C@@H](C)O[C@H]2O[C@H](CO)[C@H](O)[C@H](O)[C@H]2NC(C)=O)C(=O)N[C@H](C(=O)N2CCC[C@H]2C(=O)NCC(=O)N2CCC[C@H]2C(=O)NCC(N)=O)[C@@H](C)O)O[C@H](CO)[C@H](O)[C@@H]1O | Polypeptide N-acetylgalactosaminyltransferase 4 (GALNT4, Homo sapiens, UniProt Q8N4A0) | substrate | – | concentration not given, wild type | – | UDP-GalNAc hydrolysis | ~5%
CC[S+]([O-])c1nc(-c2cccc(OCc3ccccc3)c2)cc(C(F)(F)F)n1 (stereo not drawn) | Glucagon-like peptide 1 receptor (GLP1R, Homo sapiens, UniProt P43220) | cAMP accumulation, positive allosteric modulator | HEK293T overexpressing GLP1R | with: GLP-1 EC20 | – | Emax | 76 to 91%
COc1ccc(C=CC(=O)CC(=O)C=Cc2ccc(OC)c(F)c2)cc1F | APP | Aβ aggregation, SDS-PAGE western blot, refers to: Aβ1-42 75-200 kDa band | – | 30 µM, 24 h, 37 °C, with: Aβ1-42 10 µM | reference: DMSO | band density | 97 ± 4%
O=Cc1ccccc1 | aldehyde oxidase F10 (Pseudomonas sp. MX-058) | substrate, peroxidase-coupled H2O2 | – | pH 7.0, 30 °C, with: O2 co-substrate | – | Km | 38.6 mM
CGLY | Protein farnesyltransferase (Rattus norvegicus, UniProt Q02293+Q04631) | substrate, stopped-flow fluorescence | peptide | pH 7.8, 25 °C, single turnover | – | farnesylation rate constant | 0.13 ± 0.01 s⁻¹
CC[C@H](C)[C@H](NC(=O)COCCOCCOCCOCCN=[N+]=[N-])C(=O)N[C@@H](CCC(=O)O)C(=O)N[C@@H](CC(C)C)C(=O)N[C@@H](CC(C)C)C(=O)N[C@@H](CCC(N)=O)C(=O)N[C@@H](C)C(=O)N[C@@H](CCCNC(=N)N)C(N)=O | E-selectin (SELE, Homo sapiens, UniProt P16581) | binding, surface plasmon resonance | – | – | – | dissociation rate constant | 0.0779 ± 0.00381 s⁻¹
CC(C(=O)O)c1ccc(-c2ccccc2)c(F)c1 (stereo not drawn) | CASP4 | – | – | 33 µM, with: LEHD substrate | reference: solvent control | remaining activity | 5.78%

A few entries again:
Substance | target | assay | system | setting | how to read | measurement | result
O=Cc1ccc(O)cc1 | Enoyl-ACP reductase (Thermus thermophilus, UniProt P83818) | enzyme activity, substrate, steady-state turnover | – | – | – | NAD(P)H oxidation rate | no effect
CC(C)[C@H](NC(=O)[C@H](CCCNC(=N)N)NC(=O)[C@@H](NC(=O)[C@H](CCC(N)=O)NC(=O)[C@H](CCC(N)=O)NC(=O)[C@@H](NC(=O)[C@H](Cc1c[nH]c2ccccc12)NC(=O)[C@@H]1CCCN1C(=O)[C@@H]1CCCN1C(=O)[C@H](Cc1ccccc1)NC(=O)[C@@H](CO)NC(=O)CNC(=O)[C@H](CCCNC(=N)N)NC(=O)[C@H](CCCNC(=N)N)NC(=O)[C@H](CCCNC(=N)N)NC(=O)[C@H](CCCNC(=N)N)NC(=O)[C@H](CCCNC(=N)N)NC(=O)[C@@H](N)CCCNC(=N)N)C(C)C)[C@@H](C)O)C(=O)O | Disks large homolog 4, PDZ3 domain (Homo sapiens, UniProt P78352) | binding, surface plasmon resonance | – | pH 7.5, 25 °C | – | kon | 633000 M⁻¹ s⁻¹
Cc1cnc(-c2ccnc(C(C)(C)O)n2)cc1-n1c(C)cc(OCc2ncc(F)cc2F)c(Cl)c1=O | p38α–MK2 complex | binding, surface plasmon resonance | – | with: 10 nM p38α | reference: CDD-110 | complex half-life increase | 4 fold
